Measurements collected from several papers.
Each numbered part is a random draw from the data of one study; scales do not carry over between parts. Changes are numbered by the printed parent chain.

Sample 1 — target: UBE2G1 UBC core domain (UniProt P62253); method: yeast two-hybrid; sample: yeast; notes: mostly zero background; relative to: not given; direction: higher = stronger interaction
B1: TRIM4 RING domain (UniProt Q9C037); chain EAEDIQEELTCPICLDYFQDPVSIECGHNFCRGCLHRNWAPGGGPFPCPECRHPSAPAALRP
B2: RC3H1 RING domain (UniProt Q5TC82); chain QAPQWTDFLSCPICTQTFDETIRKPISLGCGHTVCKMCLNKLHRKACPFDQTTINTDIELL
B3: VPS41 RING domain (UniProt P49754); chain KGVLVDEENICESCLSPILPSDAAKPFSVVVFHCRHMFHKECLPMPSMNSAAQFCNICSAKNRGPGSAI
B4: TRIML1 RING domain (UniProt Q8N9V2); chain LMENLREELTCFICLDYFSSPVTTECGHSFCLVCLLRSWEEHNTPLSCPECWRTLEGPHFQS
B5: MKRN1 RING domain (UniProt Q9UHC7); chain FAVQRSKDMVCGICMEVVYEKANPSERRFGILSNCNHTYCLKCIRKWRSAKQFESKIIKSCPECRITSNFVIPSE
B6: RNF38 RING domain (UniProt Q9H0F5); chain PNNHQSEQTLCVVCMCDFESRQLLRVLPCNHEFHAKCVDKWLKANRTCPICRADASEVHRDS
Construct (chain): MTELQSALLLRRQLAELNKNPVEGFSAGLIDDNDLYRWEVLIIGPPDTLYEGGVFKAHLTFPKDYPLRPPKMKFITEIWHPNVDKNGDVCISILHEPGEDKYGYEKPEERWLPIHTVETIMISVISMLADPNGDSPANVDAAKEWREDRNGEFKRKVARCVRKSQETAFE
Molecule	lacZ reporter activity
ASLPTSEEDLCPICYAHPISAVFQPCGHKSCKACINQHLMNNKDCFFCKTTIVSVEDWE (RNF123 RING domain (UniProt Q5XPI4))	0
B1 (TRIM4 RING domain)	0
B2 (RC3H1 RING domain)	0
QVDKAVFHMQSVKCLKCQEQKRAVLPCQHAALCELCAEGSECPICQPGRAHTLQS (UNK RING domain (UniProt Q9C0B0))	0
B3 (VPS41 RING domain)	0
B4 (TRIML1 RING domain)	0
B5 (MKRN1 RING domain)	0
B6 (RNF38 RING domain)	0
GAAPGPEAAECLVCSELALLVLFSPCQHRTVCEECARRMKKCIRCQVVVSKKLRPD (MIB2 RING domain (UniProt Q96AX9))	0

Sample 2 — target: CCNB3, cyclin fold, Cln2 fusion (human); method: yeast growth competition, sequencing; sample: yeast; notes: weak parent motif; relative to: not given; direction: higher = stronger binding
Parent: CDKN1B docking peptide (human); PSACRNLFGPVDH
Variant	normalised enrichment score
PSAFRNLFGPVDH [C4F]	0.307
PSACRDLFGPVDH [N6D]	0.429
PSAARNLFGPVDH [C4A]	0.378
PSACRNLFGPVTH [D12T]	0.451
PSAGRNLFGPVDH [C4G]	-0.0885
PSACRNLFGPVDK [H13K]	0.545
PSACRNLFGPVAH [D12A]	0.743
PSACRLLFGPVDH [N6L]	0.582
PHACRNLFGPVDH [S2H]	0.0927
PSAYRNLFGPVDH [C4Y]	0.145
PSACRNLFGPVDP [H13P]	0.616
PSACRNLFGSVDH [P10S]	0.311
PSACANAFGPVDH [R5A L7A]	-0.1
PSACRNLFGPVDD [H13D]	0.13
PSCCRNLFGPVDH [A3C]	0.543
PSACRNLFGPVDY [H13Y]	0.305
PSRCRNLFGPVDH [A3R]	0.307
PPACRNLFGPVDH [S2P]	0.407

Sample 3 — method: universal PBM; molecule type: double-stranded DNA, one strand shown; sample: in vitro; tested at: not given; direction: higher = stronger binding
Target: Sal-like protein 4, full length isoform B (SALL4, Homo sapiens, UniProt Q9UJQ4-2, residues 1-616)
Notes: 8-mer, flanks averaged, mean of replicates
Oligonucleotide	E-score
GTCCAGTA	-0.0703
CGTGGATA	0.125
GGGTATAC	-0.0583
CTAATTAC	0.173
CCACCACG	-0.0645
CGACGGCG	-0.345
AGCCCGGA	-0.385
GCAATGAC	-0.042
AGTCTAGG	0.0539
ACGTAACG	0.0191
AATGGCCT	-0.0301
CATTGATC	0.0385
AACATGTT	0.268
TCATTACA	0.276
TGCTAGCA	-0.00046
TCAGAGAA	0.0782
ATCAGCCC	-0.101
ACGCATCC	-0.211

Sample 4 — method: protein binding microarray; molecule type: double-stranded DNA, one strand shown; sample: in vitro; tested at: not given; relative to: not given; direction: higher = stronger binding
Target: Histone acetyltransferase KAT6A, winged helix 2, GST fusion (KAT6A, Homo sapiens, UniProt Q92794, residues 85-181)
Notes: 8-mer, flanks averaged, mean of 2 arrays, mostly near background
Target sequence (chain): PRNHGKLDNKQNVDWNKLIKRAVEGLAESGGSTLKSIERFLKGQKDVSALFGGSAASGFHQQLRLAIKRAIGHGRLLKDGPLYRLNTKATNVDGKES
Oligonucleotide	E-score
CGGAAGGC	0.076
CAGAGGCG	0.149
ATCTTAAT	-0.0171
AACGAGAG	0.14
CAATATGA	0.0174
CTATCAAC	0.168
CACTCGGC	0.187
CCCTCTCC	-0.0432
AACCATAG	0.0252
AGTGCGTG	0.0323
CCCCTACA	-0.162
GTATGTTA	-0.0787
ATACTCGA	-0.133
CGTTCAGC	-0.0494
CAGAGAAA	0.146
CTGACCTA	-0.0543
AGAGACTC	-0.118
ACATGAAT	-0.192
CAACCCCC	-0.185
AACTATTC	-0.138
TCGAACCA	-0.0633

Sample 5 — method: RNA Bind-n-Seq; molecule type: RNA; sample: in vitro; tested at: not given; relative to: input RNA pool; direction: higher = stronger binding
Target: RING finger protein unkempt homolog, zinc fingers 1-6, GST-SBP tag (UNK, Homo sapiens, UniProt Q9C0B0, residues 30-357)
Notes: RNA with constant flanks, human and mouse sites, ends assumed
Shared flanks, not repeated: GGGAGUUCUACAGUCCGACGAUC … CAACAGAGGAUUGAGCAUCA
Target sequence (chain): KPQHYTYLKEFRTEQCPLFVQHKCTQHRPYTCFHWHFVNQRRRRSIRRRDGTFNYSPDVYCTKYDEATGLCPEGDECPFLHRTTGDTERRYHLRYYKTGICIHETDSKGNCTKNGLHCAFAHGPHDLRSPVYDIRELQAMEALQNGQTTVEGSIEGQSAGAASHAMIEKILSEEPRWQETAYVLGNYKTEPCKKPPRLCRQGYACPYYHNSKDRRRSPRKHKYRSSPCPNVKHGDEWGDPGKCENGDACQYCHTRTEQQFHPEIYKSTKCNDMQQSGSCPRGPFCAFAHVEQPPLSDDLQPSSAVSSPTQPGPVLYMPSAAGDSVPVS
Oligonucleotide	bound/input enrichment
GGGGGCGGGUGGAGGGUAGGAUUUGUGCUGGAUGAGGCCGCUGCUUCCUCGGACCCCAGAACUAGGACUUGGCCACGUUGCAGCCCCCGUUCGGGUAACGUUUUUCUUCACGCCGCAGCC	0.522 ratio
UUUGAGCUGAUGACCAACCUUCACACCAAGCUGGAAGGCUUCCACACGCAGAUCUCCAAGUACUUCUCCGAGAGGGGUGACGCCGUGGCCAAAGCAGCCAAGCAGCCCCACGUGGGUGAC	0.081 ratio
GAGGCCAUUGAAUUGCCAAUGGAUCCAAAGUUGAACAAAAGACGAGGUUUUGUGUUUAUCACCUUUAAAGAAGAAGAACCCGUGAAGAAGGUUCUGGAGAAAAAGUUCCAUACUGUCAGU	0.165 ratio
AUAGCAAGGAAGAUCAUUAAGGACGGUGAGCAGCAUGAAGAUCUCAAUGAAGUAGCCAAACUAUUCAACAUUCAUGAAGACUGAAGCCCCACAGUGGAAUUGGCAAACCCACUGCAGCCC	0.413 ratio
UUGUGAACACACAGCCAGUCCGCUUCCAGGCUUUGUUCCUCUGUGUGCUUAGUUUUAAAGACAACUUUGAAAUAAACAAUGAAAUAAAAGAUGUCACUAAAAUCUUUGAGGCUCCUGAAC	0.461 ratio
AACAGUGAGGAGAUGUGGAAAACCUAUCGUCGUUAUAGUGACUUCCAUGACUUCCACAUGAGAAUCACUGAACAGUUUGAAAGUCUCUCAAGCAUAUUGAAACUUCCUGGAAAAAAGACU	0.186 ratio
UCUAGAAUGUCUUCAACUAAAUCAAGUGGAAGUGAAUCUGAUAGAUCAGAAAGACCUGUAUUAGUACGCCAGUCAACUUUCAUCAAAGAAGCUCCAAGCCCAACCUUAAGAAGAAAAUUG	0.185 ratio
AUUUCCAGUUGUCUGAGGUGGCCAGGACAUUACUCCCGUGCGCCUUACCCAUACUUCAGUAGCAGGCAUUUCUCAUUGAACUGUAGACCACCUUUUCUGUUUGAGUCUGGAACGCAGUUU	0.253 ratio
AACAAGUGGGUGAUCCCGGAGUUGGUCGGCCACACCAUUGUCACUGUGCUGAUGCUUGUCUCCCUGCACUGGUUCAUCUUCCUUCUCAACUUACCUGUCGCCACGUGGAAUAUAUAUAGG	0.479 ratio
GGAUGGCACAGCUUCUGGAUCUAUCUGUUGAUGAGUCCGAAGCCUUUCUCUCAAAUCUAGUAGUUAACAAGACCAUCUUUGCUAAAGUAGACAGAUUAGCAGGAAUUAUCAACUUCCAGA	0.572 ratio
GGCCUCUCGCUGGUGCCCGUGAUCUUUGUUCUGUAUCGUUGGGGGGAGGUGAGAUCAGUCAAUAGGGGUGUUGCUGUUUCCCAUCCCUGCCCCCCCCCCCCAAUUGUUAAUUUUAAGCUG	0.229 ratio

Sample 6 — method: RNAcompete; molecule type: RNA; sample: in vitro; tested at: 20 nM; notes: 7-mer, probes averaged, single round; relative to: mean of 7-mers; direction: higher = stronger binding
Target: PABPC1L2, full length, GST fusion (mouse, UniProt A0ABA7IW68)
Construct (chain): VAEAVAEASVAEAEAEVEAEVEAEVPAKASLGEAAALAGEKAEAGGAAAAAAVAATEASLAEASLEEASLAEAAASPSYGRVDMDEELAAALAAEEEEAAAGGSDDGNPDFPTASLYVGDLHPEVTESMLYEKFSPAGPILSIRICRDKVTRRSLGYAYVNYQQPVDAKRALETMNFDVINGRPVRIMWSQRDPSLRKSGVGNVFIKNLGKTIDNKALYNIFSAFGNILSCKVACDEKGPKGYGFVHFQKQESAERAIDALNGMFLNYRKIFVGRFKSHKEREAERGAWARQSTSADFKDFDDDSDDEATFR
Oligonucleotide	7-mer Z-score
AGUUCCU	-0.188
AGCAAAA	3.24
GACUUGC	-0.186
CCGAUUC	-0.402
UACGCCU	-0.393
UUAAGAU	-0.00652
CGGGAGC	0.00254
UGACAUU	-0.0953
CUUACAC	-0.124
UCACAUC	-0.255
ACAAGUG	0.245
CUCGAAG	-0.119
AUUCCCA	-0.311
UUUGGAA	-0.126
CUUCGUA	-0.3
AUGGAAU	0.0478
CUGCGCU	-0.298

Repeated from above (sample 6):
Oligonucleotide	7-mer Z-score
CGGGAGC	0.00254
UGACAUU	-0.0953
CUUACAC	-0.124
UCACAUC	-0.255
ACAAGUG	0.245
CUCGAAG	-0.119
